Published values pooled from the literature.
Numbered parts are unrelated; each lists some results of a single study. Positions count from the first letter of the parent shown.
Chain of UniProt P51957 (whole entry, looked up): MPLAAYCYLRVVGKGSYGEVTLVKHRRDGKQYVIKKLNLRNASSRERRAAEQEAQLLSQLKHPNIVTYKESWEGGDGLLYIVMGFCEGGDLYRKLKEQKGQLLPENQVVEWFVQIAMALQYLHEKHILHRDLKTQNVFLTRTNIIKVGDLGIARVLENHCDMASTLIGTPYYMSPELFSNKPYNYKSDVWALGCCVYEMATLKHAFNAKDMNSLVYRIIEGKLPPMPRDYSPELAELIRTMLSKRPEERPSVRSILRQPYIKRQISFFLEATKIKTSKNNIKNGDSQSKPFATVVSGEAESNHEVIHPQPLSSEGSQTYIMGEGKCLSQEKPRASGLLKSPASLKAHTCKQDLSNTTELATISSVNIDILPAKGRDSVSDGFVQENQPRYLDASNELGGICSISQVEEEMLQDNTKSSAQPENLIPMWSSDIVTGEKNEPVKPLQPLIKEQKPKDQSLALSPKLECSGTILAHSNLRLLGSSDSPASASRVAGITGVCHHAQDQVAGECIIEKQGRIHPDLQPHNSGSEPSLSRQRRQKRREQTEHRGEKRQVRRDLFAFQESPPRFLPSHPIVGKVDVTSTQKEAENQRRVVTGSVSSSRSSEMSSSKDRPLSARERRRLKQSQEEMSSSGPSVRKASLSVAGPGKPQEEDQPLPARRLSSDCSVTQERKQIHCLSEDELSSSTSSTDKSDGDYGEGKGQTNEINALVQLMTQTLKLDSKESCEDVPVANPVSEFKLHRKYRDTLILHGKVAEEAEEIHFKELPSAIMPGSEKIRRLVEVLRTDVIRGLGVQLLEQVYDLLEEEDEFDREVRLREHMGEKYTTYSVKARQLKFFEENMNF
Chain of UniProt Q8N568 (whole entry, looked up): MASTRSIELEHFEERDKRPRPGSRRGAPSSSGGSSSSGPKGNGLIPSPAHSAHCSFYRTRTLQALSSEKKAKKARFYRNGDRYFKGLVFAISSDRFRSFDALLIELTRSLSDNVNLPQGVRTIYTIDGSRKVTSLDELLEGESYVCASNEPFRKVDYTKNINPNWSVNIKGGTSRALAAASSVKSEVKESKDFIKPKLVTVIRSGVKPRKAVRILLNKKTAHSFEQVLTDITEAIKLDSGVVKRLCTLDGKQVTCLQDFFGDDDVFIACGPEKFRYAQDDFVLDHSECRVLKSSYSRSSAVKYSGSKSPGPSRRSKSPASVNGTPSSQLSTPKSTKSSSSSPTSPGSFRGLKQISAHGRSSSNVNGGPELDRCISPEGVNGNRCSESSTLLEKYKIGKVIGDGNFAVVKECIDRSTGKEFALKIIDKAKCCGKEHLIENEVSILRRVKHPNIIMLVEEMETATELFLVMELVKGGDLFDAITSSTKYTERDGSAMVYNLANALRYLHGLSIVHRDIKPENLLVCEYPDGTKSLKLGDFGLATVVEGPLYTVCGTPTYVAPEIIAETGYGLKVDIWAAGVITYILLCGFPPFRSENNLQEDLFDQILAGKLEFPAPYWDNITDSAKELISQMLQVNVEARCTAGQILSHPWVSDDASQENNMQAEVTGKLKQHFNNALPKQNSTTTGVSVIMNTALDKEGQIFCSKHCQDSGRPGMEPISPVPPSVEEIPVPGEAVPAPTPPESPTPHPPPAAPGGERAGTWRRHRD
Chain of UniProt O75116 (whole entry, looked up): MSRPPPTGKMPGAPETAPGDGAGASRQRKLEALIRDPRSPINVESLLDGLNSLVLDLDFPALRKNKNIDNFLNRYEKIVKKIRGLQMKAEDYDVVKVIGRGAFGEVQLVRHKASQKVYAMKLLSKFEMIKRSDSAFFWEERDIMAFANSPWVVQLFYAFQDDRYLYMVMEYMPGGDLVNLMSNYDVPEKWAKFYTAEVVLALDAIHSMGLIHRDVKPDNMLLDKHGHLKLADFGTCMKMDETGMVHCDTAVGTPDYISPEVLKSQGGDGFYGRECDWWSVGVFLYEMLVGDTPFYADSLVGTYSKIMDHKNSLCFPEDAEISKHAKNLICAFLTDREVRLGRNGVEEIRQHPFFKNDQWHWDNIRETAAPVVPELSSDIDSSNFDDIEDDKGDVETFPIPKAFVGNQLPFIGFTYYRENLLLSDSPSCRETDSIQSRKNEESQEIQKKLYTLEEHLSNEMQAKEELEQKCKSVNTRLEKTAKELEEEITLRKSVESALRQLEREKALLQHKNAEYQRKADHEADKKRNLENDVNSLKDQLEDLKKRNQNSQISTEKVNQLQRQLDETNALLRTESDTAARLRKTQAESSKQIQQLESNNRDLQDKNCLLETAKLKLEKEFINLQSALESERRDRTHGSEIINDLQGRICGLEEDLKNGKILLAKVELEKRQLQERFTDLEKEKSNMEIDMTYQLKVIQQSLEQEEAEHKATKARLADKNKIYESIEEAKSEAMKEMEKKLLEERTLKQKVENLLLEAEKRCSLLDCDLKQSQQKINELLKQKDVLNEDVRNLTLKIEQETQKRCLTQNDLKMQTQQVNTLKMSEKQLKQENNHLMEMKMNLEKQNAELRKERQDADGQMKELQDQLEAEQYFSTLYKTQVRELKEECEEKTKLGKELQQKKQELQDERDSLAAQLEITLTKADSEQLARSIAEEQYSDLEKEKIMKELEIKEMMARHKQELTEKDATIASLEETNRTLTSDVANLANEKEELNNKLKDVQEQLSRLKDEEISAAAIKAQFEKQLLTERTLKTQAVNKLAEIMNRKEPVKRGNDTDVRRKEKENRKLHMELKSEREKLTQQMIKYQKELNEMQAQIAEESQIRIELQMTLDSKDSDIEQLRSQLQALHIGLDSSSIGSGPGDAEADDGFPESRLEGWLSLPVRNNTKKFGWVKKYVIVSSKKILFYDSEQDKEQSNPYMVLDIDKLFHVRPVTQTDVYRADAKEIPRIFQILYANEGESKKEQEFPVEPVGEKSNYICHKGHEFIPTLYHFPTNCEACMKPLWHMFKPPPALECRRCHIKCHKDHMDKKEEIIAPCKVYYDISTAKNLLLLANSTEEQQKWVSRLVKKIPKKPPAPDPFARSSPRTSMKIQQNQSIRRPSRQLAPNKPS

Series 1 — effect on: cell-free assay; method: competition with immobilised ligand; concentration: 1 µM
SMILES: CN(C)C(=O)Cn1cc(-c2nc([C@@](C)(c3ccc(-c4cnc(N)nc4)cc3)C3CC3)no2)cn1
target	remaining binding
DCLK2 (Homo sapiens, UniProt Q8N568)	91%
ROCK2 (Homo sapiens, UniProt O75116)	100%
NEK4 (Homo sapiens, UniProt P51957)	88%

Series 2 — target: CCND2, cyclin fold, Cln2 fusion (human); method: yeast growth competition, sequencing; medium: yeast; setting: weak parent motif; baseline: not given; direction: higher = stronger binding
Starting sequence: RBL1 docking peptide (human); GSAKRRLFGEDPP; partner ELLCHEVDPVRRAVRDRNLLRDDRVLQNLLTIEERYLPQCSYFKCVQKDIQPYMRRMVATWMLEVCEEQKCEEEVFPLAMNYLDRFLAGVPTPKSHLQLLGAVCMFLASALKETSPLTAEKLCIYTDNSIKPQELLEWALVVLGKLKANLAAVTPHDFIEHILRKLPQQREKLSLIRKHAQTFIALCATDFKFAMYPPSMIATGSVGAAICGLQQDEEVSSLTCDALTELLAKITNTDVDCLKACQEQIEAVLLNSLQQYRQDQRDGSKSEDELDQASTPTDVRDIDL
Variant	normalised enrichment score
R5D	0.248
L7E	-0.0931
P13D	0.441
R5G	0.0403
F8N	-0.00495
S2G	0.169
G9I	0.424
P12K	0.625

Series 3 — method: DHFR PCA, deep sequencing; medium: yeast; added: (+)-ABA 0.032 µM; baseline: wild-type fitted maximum; direction: higher = stronger binding
Target: ABI1, truncated, D143A, DHFR fusion (Arabidopsis thaliana)
Setting: methotrexate growth selection, single substitutions
Starting sequence: PYL1, truncated, DHFR fusion (Arabidopsis thaliana); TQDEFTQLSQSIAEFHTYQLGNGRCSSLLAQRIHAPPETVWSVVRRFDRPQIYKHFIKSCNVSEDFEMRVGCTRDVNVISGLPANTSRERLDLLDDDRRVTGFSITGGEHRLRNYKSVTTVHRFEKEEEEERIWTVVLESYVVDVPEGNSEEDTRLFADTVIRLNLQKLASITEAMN
Variant	relative binding score
H34K	30.4%
D97G	9.11%
T73Y	50.7%
R45W	-1.68%
E131W	16.4%
S63C	26.3%
I57M	-1.08%
P37T	7.1%

Mixed results
Compound	medium	endpoint	value
CCOC(=O)[C@@H]1CSCC(=O)N[C@@H](CC)C(=O)N(C)[C@@H](C)C(=O)N[C@@H](CC(C)C)C(=O)N2CCC[C@@H]2C(=O)N(CC)CC(=O)N[C@H](CC(C)C)C(=O)N(C)[C@@H](C)C(=O)N[C@@H](CC(C)C)C(=O)N1C	hydrocarbon/water	logD	0.087

For quick reference, copied from above (series 1):
target	remaining binding
ROCK2 (Homo sapiens, UniProt O75116)	100%
NEK4 (Homo sapiens, UniProt P51957)	88%
